Published values from different studies.
± marks the error that the study gave.

| SMILES | test | test system | setting | how to read | endpoint | result |
| --- | --- | --- | --- | --- | --- | --- |
| O=S(=O)(Nc1ccccc1)c1ccc(NC(=S)Nc2ccccc2)cc1 |  | mouse, male, kidney | oral, 80 mg/kg daily, 14 days | relative to: body weight | relative organ weight | 1.61% |
| O=C(O)CNCP(=O)(O)O |  | cow whole milk | 20 nM | relative to: milk fat over skim milk | milk fat partition ratio | 0.16 |
| CN1CC[C@@H](c2c(O)cc(O)c3c(=O)cc(-c4ccc(C(F)(F)F)cc4Cl)oc23)[C@@H]1CO | refers to: Diarrhea | B-cell malignancies | oral, 200 mg, intermittent dosing |  | patients with adverse event | 0% |
| CO[C@H]1C[C@@H]2CC[C@@H](C)[C@@](O)(O2)C(=O)C(=O)N2CCCC[C@H]2C(=O)O[C@H]([C@H](C)C[C@@H]2CC[C@@H](OC(=O)NCCOCCOCCOCCOCCOCCOCCOCCOCCC(=O)N3CCc4cc(Cn5nc(-c6ccc7oc(N)nc7c6)c6c(N)ncnc65)ccc4C3)[C@H](OC)C2)C[C@@H](O)[C@H](C)/C=C(\C)[C@@H](O)[C@@H](OC)C(=O)[C@H](C)C[C@H](C)/C=C/C=C/C=C/1C |  | patients with advanced solid tumours | intravenous, dose not given, any grade |  | Fatigue AE leading to dose reduction | 1.8% |
| C[C@]1(CO)Cc2ncn(-c3ccc(C#N)c(Cl)c3)c2C(=O)O1 |  | human | 10 mg multiple doses, fasted |  | subjects with drug-related dizziness | 11.1% |
| COc1ccc([C@@H]2CC(=O)c3c(O)cc(O)cc3O2)cc1O |  | male Sprague-Dawley rat, obese | oral, 100 mg/kg of neohesperidin, 0 to 12 h, after β-glucuronidase/sulfatase hydrolysis |  | urinary excreted amount, total | 2730 ± 1600 ng |
| CC(=O)c1c(C)c2cnc(Nc3ccc(C4CCN(CCS(C)(=O)=O)CC4)cn3)nc2n(C2CCCC2)c1=O |  | human, plasma | oral, 50 mg twice daily, day 1, single dose, together with: letrozole |  | Vd | 645 L |
| Cc1cc(C)c(CNC(=O)c2cc(Cl)c3c(c2C)O[C@@](C)([C@H]2CC[C@H](N(C)C)CC2)O3)c(=O)[nH]1 |  | human, relapsed/refractory NHL | concentration not given, treatment-related TEAEs, grade 5 |  | Hyperglycaemia incidence | 0% |
| COc1cc(N2CCC(N3CCN(C)CC3)CC2)ccc1Nc1ncnc(Nc2ccccc2S(=O)(=O)C(C)C)n1 | refers to: Stomatitis | Japanese patients with solid tumours | oral, dose not given, all grades |  | treatment-emergent adverse events | 3 number (percent) |
| CC(C)n1c(C2CCNCC2)nc2c([N+](=O)[O-])c(Br)c(Br)cc21 | refers to: Asthenia | AML patients | dose not given, all doses |  | grade ≥3 adverse events | 14% |
| O=C(O)CCCOc1ccc(F)cc1-c1cc(-c2ccccc2C(F)(F)F)n(-c2ccccc2)n1 | refers to: adrenals | Crl:CD(SD) rats, female | iv, 25 µg/kg, 1 day |  | organ weight | 64.1 ± 8.2 mg |
| CC(C)[C@@H]1NC(=O)CNC(=O)[C@H](CC(N)=O)NC(=O)[C@H](CCCNC(=N)N)NC(=O)[C@H](Cc2ccc(O)cc2)NC(=O)[C@H](C(C)C)NC(=O)[C@@H](NC(=O)[C@@H](NC(=O)[C@H](CC(N)=O)NC(=O)[C@H](Cc2c[nH]c3ccccc23)NC(=O)[C@H](C)NC(=O)[C@H](Cc2ccccc2)NC(=O)CN)C(C)C)CSSC[C@@H](C(=O)N[C@@H](Cc2cnc[nH]2)C(=O)N[C@@H](CCCNC(=N)N)C(=O)N[C@@H](CCCNC(=N)N)C(=O)N[C@@H](C)C(=O)N[C@@H](CC(N)=O)C(N)=O)NC(=O)[C@H](C(C)C)NC(=O)[C@H](CCCNC(=N)N)NC1=O |  | ICR mouse | ip, 5 mg/kg | direction not given | group interaction score | 0 |
| C[C@]12C=CC(=O)C=C1C(CSC[C@H](N)C(=O)O)C[C@@H]1[C@@H]2CC[C@]2(C)C(=O)CC[C@@H]12 (some centres unmarked) |  | human, postmenopausal women, serum | oral, 25 mg daily, 1 year, UGT2B17 and GSTA1 genotypes |  | serum concentration | 28 nM |
| CC[C@H](C)[C@H](NC(=O)[C@H](Cc1ccccc1)NC(=O)[C@H](CCC(=O)O)NC(=O)[C@H](CCCCN)NC(=O)[C@H](C)NC(=O)[C@H](C)NC(=O)[C@H](CCC(N)=O)NC(=O)CNC(=O)[C@H](CCC(=O)O)NC(=O)[C@H](CC(C)C)NC(=O)[C@H](Cc1ccc(O)cc1)NC(=O)[C@H](CO)NC(=O)[C@H](CO)NC(=O)[C@@H](NC(=O)[C@H](CC(=O)O)NC(=O)[C@H](CO)NC(=O)[C@@H](NC(=O)[C@H](Cc1ccccc1)NC(=O)[C@@H](NC(=O)CNC(=O)[C@H](CCC(=O)O)NC(=O)[C@H](C)NC(=O)N(N)Cc1c[nH]cn1)[C@@H](C)O)[C@@H](C)O)C(C)C)C(=O)N[C@@H](C)C(=O)N[C@@H](Cc1c[nH]c2ccccc12)C(=O)N[C@@H](CC(C)C)C(=O)N[C@H](C(=O)N[C@@H](CCCNC(=N)N)C(=O)NCC(=O)N[C@@H](CCCNC(=N)N)C(=O)NCC(=O)O)C(C)C | LC-MS/MS | ICR mice, male, plasma | intravenous bolus, 1 mg/kg |  | AUC extrapolated percentage | 0.3% |

Some of these lines once more:
| SMILES | test | test system | setting | how to read | endpoint | result |
| --- | --- | --- | --- | --- | --- | --- |
| CC(C)n1c(C2CCNCC2)nc2c([N+](=O)[O-])c(Br)c(Br)cc21 | refers to: Asthenia | AML patients | dose not given, all doses |  | grade ≥3 adverse events | 14% |
